Experimental data gathered from unrelated publications.
Numbered parts are unrelated; each lists some results of a single study. Positions count from the first letter of the parent shown.

Set 1 — target: UBE2A UBC core domain (UniProt P49459); technique: yeast two-hybrid; medium: yeast; notes: mostly zero background; baseline: not given; direction: higher = stronger interaction
Sequence of UniProt P49459 (whole entry, looked up): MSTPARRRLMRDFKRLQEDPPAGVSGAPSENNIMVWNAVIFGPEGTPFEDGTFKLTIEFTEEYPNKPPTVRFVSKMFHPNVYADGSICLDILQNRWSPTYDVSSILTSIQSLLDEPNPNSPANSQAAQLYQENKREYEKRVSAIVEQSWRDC
B1: ARIH2 RING domain (UniProt O95376); chain HVPTSHPPHHCAVCMQFVRKENLLSLACQHQFCRSCWEQHCSVLVKDGVGVGVSCMAQDCPLRTPEDFVF
B2: CNOT4 RING domain (UniProt O95628); chain MSRSPDAKEDPVECPLCMEPLEIDDINFFPCTCGYQICRFCWHRIRTDENGLCPACRKPYPED
B3: RING1 RING domain (UniProt Q06587); chain SPRSLHSELMCPICLDMLKNTMTTKECLHRFCSDCIVTALRSGNKECPTCRKKLVSKRSLR
B4: RNF186 RING domain (UniProt Q9NXI6); chain HSGSTECDLECLVCREPYSCPRLPKLLACQHAFCAICLKLLLCVQDNTWSITCPLCRKVTAVPGGLI
B5: BFAR RING domain (UniProt Q9NZS9); chain GPQISVSEFSCHCCYDILVNPTTLNCGHSFCRHCLALWWASSKKTECPECREKWEGFPKVS
Sequence	lacZ reporter activity
DDVLTKDAGECVICLEELLQGDTIARLPCLCIYHKSCIDSWFEVNRSCPEHPAD (ZNRF1 RING domain (UniProt Q8ND25))	0
B1 (ARIH2 RING domain)	0
B2 (CNOT4 RING domain)	0
B3 (RING1 RING domain)	0
B4 (RNF186 RING domain)	0
FAEQPSVKLCCQLCCSVFKDPVITTCGHTFCRRCALKSEKCPVDNVKLTVVVNNI (TRAF7 RING domain (UniProt Q6Q0C0))	0
EIKEYKARLTCPCCNTRKKDAVLTKCFHVFCFECVRGRYEARQRKCPKCNAAFGAHDFHR (RNF40 RING domain (UniProt O75150))	0
B5 (BFAR RING domain)	0

Set 2 — target: CCNE1, cyclin fold, Cln2 fusion (human); technique: yeast growth competition, sequencing; medium: yeast; notes: strong parent motif; baseline: not given; direction: higher = stronger binding; starting sequence: viral docking peptide; YKVKRRLVFGADD
Change	normalised enrichment score
V3T	3.76
R5H	0.28
G10E	6.23
R5V	0.483
F9V	0.445
R6F	1.8
F9K	0.14
G10W	3.59

Set 3 — observed: peptide-MHC binding; form: peptide; concentration: concentration not given
Target: HLA class I histocompatibility antigen, A alpha chain, allele A*25:01 (Homo sapiens, UniProt P04439)
Sequence	binding
PQVLGGLSF	inactive
RSLVCLAPK	inactive
GLYLYRFHV	inactive
KPPRGVLLY	inactive
LPLESCFGV	inactive
FSDLCNFLI	inactive
AYSSWMYSY	inactive
DEYGPVFVE	inactive

Mixed results
Structure (SMILES)	organism	assay	conditions	how to read	quantity	result
CCCCCCNC(=O)n1cc(F)c(=O)[nH]c1=O	Sarcocystis neurona	parasite growth	10 µM, 96 h, second screen	baseline: untreated	log2 fold change	-1.5

Repeated from above (set 2):
Change	normalised enrichment score
F9V	0.445
R5V	0.483
V3T	3.76
